Measured values collected from several papers.
Numbers after ± are the reported error.
CDK6 with cyclin D1: Cyclin-dependent kinase 6, with cyclin D1 (CDK6, Homo sapiens, UniProt Q00534)
UniProt Q00534, sequence (whole entry, looked up): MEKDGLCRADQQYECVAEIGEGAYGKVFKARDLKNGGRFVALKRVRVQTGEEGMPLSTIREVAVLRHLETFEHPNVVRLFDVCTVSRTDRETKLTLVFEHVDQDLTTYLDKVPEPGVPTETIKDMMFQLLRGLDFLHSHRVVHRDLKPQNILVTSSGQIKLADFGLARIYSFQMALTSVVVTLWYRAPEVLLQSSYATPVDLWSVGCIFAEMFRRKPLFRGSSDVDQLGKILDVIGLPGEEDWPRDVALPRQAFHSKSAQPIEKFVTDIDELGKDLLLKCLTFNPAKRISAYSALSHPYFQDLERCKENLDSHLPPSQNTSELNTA
60 kDa heat shock protein, mitochondrial with HSP10: 60 kDa heat shock protein, mitochondrial, with HSP10 (Homo sapiens, UniProt P10809)
UniProt P10809, sequence (whole entry, looked up): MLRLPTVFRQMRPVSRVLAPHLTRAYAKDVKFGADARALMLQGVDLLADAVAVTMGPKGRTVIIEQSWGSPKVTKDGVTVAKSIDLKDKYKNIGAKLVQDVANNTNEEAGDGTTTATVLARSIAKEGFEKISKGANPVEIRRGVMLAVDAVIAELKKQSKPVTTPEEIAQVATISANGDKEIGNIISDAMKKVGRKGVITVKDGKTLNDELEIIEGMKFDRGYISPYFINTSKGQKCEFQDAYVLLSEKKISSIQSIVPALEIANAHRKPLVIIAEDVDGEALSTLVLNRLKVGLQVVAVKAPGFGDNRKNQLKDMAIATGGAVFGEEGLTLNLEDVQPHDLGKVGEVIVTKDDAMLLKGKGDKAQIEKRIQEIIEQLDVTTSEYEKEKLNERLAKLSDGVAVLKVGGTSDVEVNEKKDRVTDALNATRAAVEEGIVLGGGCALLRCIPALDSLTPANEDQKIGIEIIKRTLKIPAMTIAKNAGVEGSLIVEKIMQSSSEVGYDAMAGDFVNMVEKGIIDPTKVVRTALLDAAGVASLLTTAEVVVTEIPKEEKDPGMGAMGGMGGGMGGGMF
KRAS with SOS1: GTPase KRas, with SOS1 (KRAS, Homo sapiens, UniProt P01116)
CSNK1E: Casein kinase I isoform epsilon (CSNK1E, Homo sapiens, UniProt P49674)
UniProt P49674, sequence (whole entry, looked up): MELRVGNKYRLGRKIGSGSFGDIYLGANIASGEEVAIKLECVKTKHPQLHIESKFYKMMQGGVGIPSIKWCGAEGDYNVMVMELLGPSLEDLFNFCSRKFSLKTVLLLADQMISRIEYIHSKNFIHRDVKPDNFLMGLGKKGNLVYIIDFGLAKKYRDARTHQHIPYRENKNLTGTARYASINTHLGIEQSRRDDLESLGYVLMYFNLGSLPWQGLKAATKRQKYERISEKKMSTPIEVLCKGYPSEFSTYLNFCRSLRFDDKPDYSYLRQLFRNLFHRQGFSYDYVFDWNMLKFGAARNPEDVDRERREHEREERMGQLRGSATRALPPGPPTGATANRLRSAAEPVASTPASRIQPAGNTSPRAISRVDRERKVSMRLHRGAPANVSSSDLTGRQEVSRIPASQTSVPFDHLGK
MCL1: Induced myeloid leukemia cell differentiation protein Mcl-1 (MCL1, Homo sapiens, UniProt Q07820)
DRD2: D(2) dopamine receptor (DRD2, Homo sapiens, UniProt P14416)
UniProt P14416, sequence (whole entry, looked up): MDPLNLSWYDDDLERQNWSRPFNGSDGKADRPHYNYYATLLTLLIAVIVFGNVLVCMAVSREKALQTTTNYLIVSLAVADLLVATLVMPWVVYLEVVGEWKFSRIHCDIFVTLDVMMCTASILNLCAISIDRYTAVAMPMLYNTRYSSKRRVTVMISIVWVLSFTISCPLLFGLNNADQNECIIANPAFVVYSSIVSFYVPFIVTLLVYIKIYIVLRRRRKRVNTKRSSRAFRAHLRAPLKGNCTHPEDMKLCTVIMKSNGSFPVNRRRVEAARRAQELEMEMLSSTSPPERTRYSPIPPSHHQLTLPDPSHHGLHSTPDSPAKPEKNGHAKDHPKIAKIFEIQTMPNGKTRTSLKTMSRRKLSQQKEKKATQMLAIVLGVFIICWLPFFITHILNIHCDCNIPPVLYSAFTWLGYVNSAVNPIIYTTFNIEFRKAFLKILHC
NTRK2: BDNF/NT-3 growth factors receptor (NTRK2, Homo sapiens, UniProt Q16620)
UniProt Q16620, sequence (whole entry, looked up): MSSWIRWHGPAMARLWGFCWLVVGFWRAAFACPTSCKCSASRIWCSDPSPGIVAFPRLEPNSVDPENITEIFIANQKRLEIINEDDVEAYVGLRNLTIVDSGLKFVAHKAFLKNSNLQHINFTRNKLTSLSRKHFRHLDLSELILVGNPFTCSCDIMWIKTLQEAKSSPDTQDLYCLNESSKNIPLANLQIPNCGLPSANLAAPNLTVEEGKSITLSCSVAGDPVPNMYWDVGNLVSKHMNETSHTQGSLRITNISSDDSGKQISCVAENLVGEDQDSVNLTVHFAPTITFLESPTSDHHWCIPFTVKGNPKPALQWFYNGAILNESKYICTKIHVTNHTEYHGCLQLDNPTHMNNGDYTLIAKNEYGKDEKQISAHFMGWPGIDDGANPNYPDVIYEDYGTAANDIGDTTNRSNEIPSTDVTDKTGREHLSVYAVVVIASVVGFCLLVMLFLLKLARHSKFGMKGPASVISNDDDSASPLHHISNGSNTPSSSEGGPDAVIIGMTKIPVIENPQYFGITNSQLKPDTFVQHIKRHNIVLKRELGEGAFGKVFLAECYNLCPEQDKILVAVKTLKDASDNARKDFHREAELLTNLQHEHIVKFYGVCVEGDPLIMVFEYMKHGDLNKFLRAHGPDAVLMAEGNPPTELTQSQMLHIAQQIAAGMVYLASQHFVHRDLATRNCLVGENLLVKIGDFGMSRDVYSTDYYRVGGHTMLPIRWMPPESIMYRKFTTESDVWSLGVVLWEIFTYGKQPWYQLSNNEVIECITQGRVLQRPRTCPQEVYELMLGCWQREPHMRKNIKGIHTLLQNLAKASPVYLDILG
TAF1L BD2: Transcription initiation factor TFIID subunit 1-like, BD2 (TAF1L, Homo sapiens, UniProt Q8IZX4)
DNA polymerase catalytic subunit: DNA polymerase catalytic subunit (Human cytomegalovirus, UniProt P08546)
UniProt P08546, sequence (whole entry, looked up): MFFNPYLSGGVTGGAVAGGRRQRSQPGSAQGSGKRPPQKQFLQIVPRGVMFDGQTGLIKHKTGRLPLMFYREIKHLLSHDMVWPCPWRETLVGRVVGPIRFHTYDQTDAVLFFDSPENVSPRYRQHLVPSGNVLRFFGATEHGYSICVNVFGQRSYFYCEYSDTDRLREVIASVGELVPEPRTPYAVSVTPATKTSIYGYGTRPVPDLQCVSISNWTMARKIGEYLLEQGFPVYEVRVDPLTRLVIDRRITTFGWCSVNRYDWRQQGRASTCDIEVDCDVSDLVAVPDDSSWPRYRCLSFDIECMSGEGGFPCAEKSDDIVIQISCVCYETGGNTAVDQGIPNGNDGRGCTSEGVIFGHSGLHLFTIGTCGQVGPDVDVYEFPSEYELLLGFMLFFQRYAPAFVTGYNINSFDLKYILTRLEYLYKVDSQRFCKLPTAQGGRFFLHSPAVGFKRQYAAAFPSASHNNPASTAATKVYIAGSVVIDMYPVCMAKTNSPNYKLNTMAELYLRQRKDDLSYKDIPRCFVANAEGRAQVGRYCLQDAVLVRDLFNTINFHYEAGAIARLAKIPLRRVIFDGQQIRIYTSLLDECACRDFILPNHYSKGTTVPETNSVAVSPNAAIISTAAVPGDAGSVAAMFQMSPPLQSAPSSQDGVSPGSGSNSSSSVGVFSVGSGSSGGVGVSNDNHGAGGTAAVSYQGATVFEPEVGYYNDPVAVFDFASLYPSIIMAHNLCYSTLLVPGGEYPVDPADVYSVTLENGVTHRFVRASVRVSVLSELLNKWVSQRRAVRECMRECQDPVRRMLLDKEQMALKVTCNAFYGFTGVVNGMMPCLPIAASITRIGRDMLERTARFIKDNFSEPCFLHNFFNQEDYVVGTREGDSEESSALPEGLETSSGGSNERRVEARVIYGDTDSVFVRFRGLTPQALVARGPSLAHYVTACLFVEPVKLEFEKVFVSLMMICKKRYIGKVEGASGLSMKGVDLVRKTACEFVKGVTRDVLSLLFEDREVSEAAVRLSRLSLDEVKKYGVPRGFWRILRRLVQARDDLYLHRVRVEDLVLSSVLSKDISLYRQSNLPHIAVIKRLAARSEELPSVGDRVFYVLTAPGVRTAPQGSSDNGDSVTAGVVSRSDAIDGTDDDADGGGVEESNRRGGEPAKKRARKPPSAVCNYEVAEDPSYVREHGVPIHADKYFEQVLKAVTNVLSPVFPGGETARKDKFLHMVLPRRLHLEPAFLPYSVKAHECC
PTGS2: Prostaglandin G/H synthase 2 (PTGS2, Homo sapiens, UniProt P35354)
UniProt P35354, sequence (whole entry, looked up): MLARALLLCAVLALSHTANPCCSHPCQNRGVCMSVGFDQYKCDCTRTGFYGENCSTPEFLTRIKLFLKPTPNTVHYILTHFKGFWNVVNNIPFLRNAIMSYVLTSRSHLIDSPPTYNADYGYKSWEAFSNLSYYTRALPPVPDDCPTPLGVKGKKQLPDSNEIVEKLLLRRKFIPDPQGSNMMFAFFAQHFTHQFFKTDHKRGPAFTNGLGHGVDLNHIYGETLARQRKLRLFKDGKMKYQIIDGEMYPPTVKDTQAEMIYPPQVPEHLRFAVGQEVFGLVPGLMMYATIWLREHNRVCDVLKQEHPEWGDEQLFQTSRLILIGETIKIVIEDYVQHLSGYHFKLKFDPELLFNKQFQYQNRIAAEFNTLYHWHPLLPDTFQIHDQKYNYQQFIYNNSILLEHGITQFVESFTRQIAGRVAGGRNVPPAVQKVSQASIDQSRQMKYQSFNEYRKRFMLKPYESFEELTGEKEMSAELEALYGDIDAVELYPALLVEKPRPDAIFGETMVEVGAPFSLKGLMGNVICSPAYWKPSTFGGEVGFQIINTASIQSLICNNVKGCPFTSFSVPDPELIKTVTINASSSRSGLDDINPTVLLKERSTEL
Lysine--tRNA ligase, cytoplasmic: Lysine--tRNA ligase, cytoplasmic (Arabidopsis thaliana, UniProt Q9ZPI1)
UniProt Q9ZPI1, sequence (whole entry, looked up): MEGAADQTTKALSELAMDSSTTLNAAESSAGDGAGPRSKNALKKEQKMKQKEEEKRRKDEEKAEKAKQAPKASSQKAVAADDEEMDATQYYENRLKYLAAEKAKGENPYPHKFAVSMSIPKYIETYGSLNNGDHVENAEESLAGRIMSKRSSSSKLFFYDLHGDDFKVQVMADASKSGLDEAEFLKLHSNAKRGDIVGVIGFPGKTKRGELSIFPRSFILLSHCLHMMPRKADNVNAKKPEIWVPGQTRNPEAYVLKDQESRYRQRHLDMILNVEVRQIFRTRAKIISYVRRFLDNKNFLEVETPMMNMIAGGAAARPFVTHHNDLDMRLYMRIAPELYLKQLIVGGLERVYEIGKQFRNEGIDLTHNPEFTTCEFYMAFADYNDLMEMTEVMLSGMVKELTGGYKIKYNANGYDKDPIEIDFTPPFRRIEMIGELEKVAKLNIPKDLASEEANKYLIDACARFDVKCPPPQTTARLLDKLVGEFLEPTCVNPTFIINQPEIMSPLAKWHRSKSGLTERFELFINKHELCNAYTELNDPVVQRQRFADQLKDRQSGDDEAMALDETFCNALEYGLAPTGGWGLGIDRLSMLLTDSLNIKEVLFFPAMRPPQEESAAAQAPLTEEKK

Structure (SMILES)	target	assay	test system	setting	scale	IC50
CC(=O)OC1CC2CCC1(C)C2(C)C (stereo not shown)	α-glucosidase			added: 4-nitrophenyl α-D-glucopyranoside		> 30 mg/mL
COc1nc(NCc2cn(-c3ccc(C(=O)Nc4ccc(C(F)(F)F)cc4)cc3)nn2)nc(OC)n1	Stromelysin-2 (Homo sapiens, UniProt P09238)					205 ± 4 nM
O=C(Nc1ccc(-c2cccc3ncccc23)cc1)C1CCN(S(=O)(=O)c2ccccc2Cl)CC1	FAAH (Homo sapiens, UniProt O00519)	inhibitor		5 min preincubation		19.6 nM
CN(C)C(=O)c1cc2cnc(Nc3ccc(-c4ccc5c(=O)cc(N6CCNCC6)oc5c4)cc3)nc2n1C1CCCC1	CDK6 with cyclin D1	inhibitor, HotSpot radiometric kinase		added: 10 µM ATP, cyclin D1		4.93 nM
Cn1cnc(Cn2ccc3ccc(CNCc4[nH]c5ccccc5c4[C@H]4NC(=O)c5ccc(O)cc54)cc32)c1	GTPase KRas, GppNHp; with RAF1 RBD (KRAS, Homo sapiens, UniProt P01116, Q61H)	HTRF				4400 ± 1400 nM
Cc1nn(C)c2ncc(C(=O)NCC3CC(Br)=NO3)c(Cl)c12 (stereo not shown)	60 kDa heat shock protein, mitochondrial with HSP10	HSP60/10-mediated MDH refolding		30 min, preincubation before ATP, added: denatured malate dehydrogenase		33000 nM
C[C@H]1CN(C)CCN1c1nccc(-c2noc([C@@]3(C)CCCc4sc(N)c(C#N)c43)n2)n1	KRAS with SOS1	KRAS wild type-SOS1 interaction, inhibitor, AlphaScreen		geometric mean		83 nM
Cc1cc(Nc2ccc(S(F)(F)(F)(F)F)cc2)n2nc(C)nc2n1	DHODH (Homo sapiens, UniProt Q02127)	enzyme activity, inhibitor				> 50000 nM
O=C(NC1CCC1)[C@H](Cc1c[nH]c2ccccc12)NC(=O)[C@H](CCCCNC(=S)NCc1n[nH]c(=S)o1)NS(=O)(=O)c1cccc(F)c1	SIRT5 (Homo sapiens, UniProt Q9NXA8)	enzyme activity, inhibitor				10800 ± 400 nM
CN(C)C(=O)c1cc2cnc(Nc3ccc(-c4ccc5c(=O)cc(N6CCOCC6)oc5c4)c(F)c3)nc2n1C1CCCC1	CDK6 with cyclin D1	inhibitor, HotSpot radiometric kinase		added: 10 µM ATP, cyclin D1		30.4 nM
N#Cc1ccc2nc(Nc3ccc(N4CCOCC4)c(Cl)c3)[nH]c2c1	CSNK1E	NanoBRET tracer K8 binding	intact cells			> 30000 nM
Cc1ccc2[nH]nc(-c3nnc(Nc4ccc(Cl)c(Br)c4)s3)c2c1	α-glucosidase	enzyme activity, inhibitor		pH 6.8, added: p-nitrophenyl-α-D-glucopyranoside		10200 ± 1500 nM
Fc1ccc(-c2nc(-c3c(F)cccc3Cl)[nH]c2-c2ccncc2)cc1	CSNK1E	inhibitor				61.8 ± 16.7 nM
C=CC(=O)Nc1cc(Nc2nccc(-c3cn(C)c4ccccc34)n2)c(OC)cc1N(C)CCN(C)C	SLC22A8 (Homo sapiens, UniProt Q8TCC7)	inhibitor				no inhibition
C[C@H](Oc1nccc(-c2noc([C@@]3(C)CCCc4sc(N)c(C#N)c43)n2)n1)[C@@H]1CCCN1C	KRAS with SOS1	KRAS wild type-SOS1 interaction, inhibitor, AlphaScreen		geometric mean		19 nM
CC(C)C[C@H](NC(=O)[C@H](CCc1ccccc1)NC(=O)CN1CCOCC1)C(=O)N[C@@H](Cc1ccccc1)C(=O)N[C@@H](CC(C)C)C(=O)[C@@]1(C)CO1	Proteasome subunit beta type-1/Psmb5, β5 subunit (Mus musculus, UniProt O09061+O55234)	proteasome subunit activity	Ba/F3 BCR-ABL1 M351T	1 h pulse		4.54 nM
CN1CCN(c2ccc(Nc3ncc4cc(C#N)c(=O)n(C5CCCC5)c4n3)cc2)CC1	STK10 (Homo sapiens, UniProt O94804)					107 nM
O=[N+]([O-])c1ccccc1-c1nc(-c2ccc(F)cc2)c(-c2ccncc2)[nH]1	CSNK1E	inhibitor				33.4 ± 6.9 nM
COc1ccccc1C[C@@H](Oc1ncnc2sc(-c3ccc(F)cc3)c(-c3ccc(OCCN4CCN(C)CC4)c(Cl)c3C)c12)C(=O)O	MCL1					14 nM
O=C1NCCc2[nH]cc(S(=O)(=O)Nc3ccc(C(F)(F)F)c(Cl)c3)c21	DRD2					> 100000 nM
CC(C)C[C@H](NC(=O)[C@H](Cc1cccc2ccccc12)NC(=O)OCc1ccccc1)C(=O)N[C@H](CS)C[C@@H]1CCNC1=O	Genome polyprotein, protease domain (Lordsdale virus, UniProt P54634)	protease activity, inhibitor, FRET		37 °C		> 10000 nM
CC[C@@H]1[C@H](F)C(=O)N[C@@H]1COc1nccc2cc(C(N)=O)c(OC)cc12	ULK1 (Homo sapiens, UniProt O75385)	ATP probe binding, KiNativ profiling, item: Lys1 probe site	THP-1 cell lysate			> 5000 nM
CCc1cc2c(cc1N1CCC(N3CCOCC3)CC1)C(C)(C)c1[nH]c3cc(C#N)ccc3c1C2=O	NTRK2	enzyme activity, inhibitor		added: 1 mM ATP		> 724 nM
Cc1cc2c(cc1N1C(=O)c3cccc4cc(C#N)cc(c34)C1=O)n(C)c(=O)n2C	TAF1L BD2	HTRF		GST-tagged protein		166 nM
O=C1NC(=O)C2(N1)c1ccccc1-c1ccccc12	GABA-A receptor alpha-1/beta-3 (GABRA1/GABRB3, Homo sapiens, UniProt P14867+P28472)			α1β3 receptor		8400 nM
Cc1[nH]c2cccc(C(=O)N3CCC(F)(F)C3)c2c1S(=O)(=O)Nc1ccc(C(F)(F)F)c(Cl)c1	DRD2					> 100000 nM
COc1ccccc1-c1nccc(COc2ccccc2C[C@@H](Nc2ccnc3sc(-c4ccc(F)cc4)c(-c4ccc(OCCN5CCN(C)CC5)c(Cl)c4C)c23)C(=O)O)n1	MCL1	binding, quench				0.1 nM
CC1=NOC(CNC(=O)c2cnc3c(c(C)nn3C)c2Cl)C1 (stereo not shown)	60 kDa heat shock protein, mitochondrial with HSP10	ATPase activity		30 min, added: HSP10		> 250000 nM

Structure (SMILES)	target	assay	test system	setting	scale	IC50
COc1cc2c(c(OC)c1OC)-c1c(cc3c(c1OC)OCO3)C[C@H](C)[C@](C)(O)[C@H]2OC(=O)c1ccccc1	Cytochrome P450 3A5 (CYP3A5, Homo sapiens, UniProt P20815)	midazolam 1'-hydroxylation, inhibitor, recombinant enzyme		15 min, pH 7.4, added: midazolam 5 µM		88 ± 40 nM
Fc1ccc(-c2nc(-c3c(F)cccc3Br)[nH]c2-c2ccncc2)cc1	CSNK1E	inhibitor				25.1 ± 2.6 nM
CC1(F)CN(C(=O)Cn2c(=O)c(C(=O)NCc3ccc(Cl)cc3)cc3nc(N4CCN(CC(=O)O)C4=O)cnc32)C1	DNA polymerase catalytic subunit	enzyme activity		single determination		224 nM
Cc1nc(-c2cnc(NC(C)C)n(C)c2=O)ccc1Oc1ccnc(-c2cnn(C)c2)c1	CYP2C19 (Homo sapiens, UniProt P33261)	direct inhibition, inhibitor		no preincubation		> 100000 nM
CS(=O)(=O)Nc1cc2occ(NC=O)c(=O)c2cc1Oc1ccccc1	PTGS2	inhibitor				20000 nM
Nc1nsc(C(=O)NCc2ccccn2)c1Cl	Lysine--tRNA ligase, cytoplasmic	enzyme activity, inhibitor				> 100000 nM
C[C@H]1CN(CC(F)(F)F)CCN1c1nccc(-c2noc([C@@]3(C)CCCc4sc(N)c(C#N)c43)n2)n1	GTPase KRas, with SOS1 (KRAS, Homo sapiens, UniProt P01116, C118S/G12V)	KRAS G12V-SOS1 interaction, inhibitor, AlphaScreen		geometric mean		4890 nM
Cc1[nH]c(C)c(S(=O)(=O)Nc2ccc([S+](C)[O-])c(Cl)c2)c1C(=O)N1CCC(F)(F)C1 (stereo not shown)	DRD2					> 100000 nM
CCCCCCCCCCCO	uncharacterized protein (Spodoptera exigua, UniProt F1CEY0)	binding, fluorescence competitive binding		added: 1-NPN 2.0 µM		4990 nM
CCCN1CC(c2ccc(S(C)(=O)=O)cc2)=C(c2ccc(C)cc2)C1=O	PTGS2	inhibitor				18 nM
COc1cnc2c(cc(C(=O)NCc3ccc(Cl)cc3)c(=O)n2CC(=O)N2CC(C)(F)C2)n1	DNA polymerase catalytic subunit	enzyme activity, inhibitor		at least duplicate		950 nM
Cc1nn(-c2nc3c(F)cc(F)cc3s2)c(O)c1C(c1ccc(C(F)(F)F)cc1)c1c(C)nn(-c2nc3c(F)cc(F)cc3s2)c1O	CGAS (Homo sapiens, UniProt Q8N884)	enzyme activity, inhibitor, pyrophosphatase-coupled		human cGAS		11700 nM
Cc1[nH]c(C)c(S(=O)(=O)Nc2c(Cl)ccc(Cl)c2Cl)c1C(=O)N1CCC(F)(F)C1	DRD2					> 100000 nM
Cc1cc(Nc2nc(N[C@@H](C)c3ncc(F)cn3)ncc2Cl)n[nH]1	JAK1 (Homo sapiens, UniProt P23458)	enzyme activity, inhibitor				3.38 ± 1.49 nM
Cc1ncsc1-c1ccc([C@H](C)NC(=O)[C@@H]2C[C@@H](O)CN2C(=O)[C@@H](NC(=O)CCCCCC(=O)N2CCC3(CC2)CCN(c2cncc(Nc4ncc(Cl)c(-c5cccc(-c6ccccc6)c5)n4)c2)C3=O)C(C)(C)C)cc1	VHL (Homo sapiens, UniProt P40337)	target engagement, ligand	cells			16700 nM
Nc1nsc(C(=O)NC[C@@H]2CCCC[C@@H]2Cl)c1Cl	Lysine--tRNA ligase, cytoplasmic	enzyme activity, inhibitor				2000 nM
Cc1[nH]c(C)c(S(=O)(=O)Nc2ccc(C(F)(F)F)c(Cl)c2)c1C(=O)N1CC2(CCC2)C1	DRD2					> 100000 nM
Cc1cccc(-c2nc(-c3ccc(/C(N)=N/O)cc3)[nH]c2-c2ccncc2)c1	CSNK1E	inhibitor				295 ± 48 nM
COC(=O)[C@@H]1CCCN1C(=O)c1c(C)[nH]c(C)c1S(=O)(=O)Nc1ccc(C(F)(F)F)c(Cl)c1	DRD2					> 100000 nM
Cc1cc2c(cc1N1C(=O)c3cccc4c(Cl)ccc(c34)C1=O)n(C)c(=O)n2C	TAF1L BD2	HTRF		GST-tagged protein		20.9 nM
COc1ccc(-c2cc(OCC(=O)N(C)Cc3cccnc3C)nc(-n3nc(C)cc3C)n2)cc1	LNPEP (Homo sapiens, UniProt Q9UIQ6)	inhibitor, HPLC		first phase of biphasic curve	partial inhibition	~100 nM
Nc1nsc(C(=O)NCc2ccc(F)cc2F)c1Cl	Lysine--tRNA ligase, cytoplasmic	enzyme activity, inhibitor				1000 nM
Cc1[nH]c(C)c(S(=O)(=O)Nc2c(Cl)cc(C(F)(F)F)cc2Cl)c1C(=O)N1CCC(F)(F)C1	DRD2					> 100000 nM
CN(C)C(=O)c1cc2cnc(Nc3ccc(-c4cccc5c(=O)cc(N6CCNCC6)oc45)cc3)nc2n1C1CCCC1	CDK6 with cyclin D1	inhibitor, HotSpot radiometric kinase		added: 10 µM ATP, cyclin D1		390 nM
C[C@@H]1CN(C(=O)c2ccc(NC(=O)c3cc(O[C@H](C)c4c(Cl)ccc(F)c4Cl)c(N)nn3)cc2)C[C@H](C)N1	NTRK2	enzyme activity, inhibitor		added: 1 mM ATP		15 nM
Cc1[nH]c(C)c(S(=O)(=O)Nc2ccc(NS(C)(=O)=O)c(Cl)c2)c1C(=O)N1CCC(F)(F)C1	DRD2					> 100000 nM
Cc1nc2ccc(Cl)cc2c(=O)n1NC1=NC(=O)CS1	XDH (Bos taurus, UniProt P80457)	enzyme activity, inhibitor				138000 ± 4950 nM

A few entries again:
Structure (SMILES)	target	assay	test system	setting	scale	IC50
CC(C)C[C@H](NC(=O)[C@H](Cc1cccc2ccccc12)NC(=O)OCc1ccccc1)C(=O)N[C@H](CS)C[C@@H]1CCNC1=O	Genome polyprotein, protease domain (Lordsdale virus, UniProt P54634)	protease activity, inhibitor, FRET		37 °C		> 10000 nM
CC[C@@H]1[C@H](F)C(=O)N[C@@H]1COc1nccc2cc(C(N)=O)c(OC)cc12	ULK1 (Homo sapiens, UniProt O75385)	ATP probe binding, KiNativ profiling, item: Lys1 probe site	THP-1 cell lysate			> 5000 nM
CCc1cc2c(cc1N1CCC(N3CCOCC3)CC1)C(C)(C)c1[nH]c3cc(C#N)ccc3c1C2=O	NTRK2	enzyme activity, inhibitor		added: 1 mM ATP		> 724 nM
Cc1cc2c(cc1N1C(=O)c3cccc4cc(C#N)cc(c34)C1=O)n(C)c(=O)n2C	TAF1L BD2	HTRF		GST-tagged protein		166 nM
O=C1NC(=O)C2(N1)c1ccccc1-c1ccccc12	GABA-A receptor alpha-1/beta-3 (GABRA1/GABRB3, Homo sapiens, UniProt P14867+P28472)			α1β3 receptor		8400 nM
Cc1[nH]c2cccc(C(=O)N3CCC(F)(F)C3)c2c1S(=O)(=O)Nc1ccc(C(F)(F)F)c(Cl)c1	DRD2					> 100000 nM
